Published values from different studies.
Each line is one published result; not all experiments were run side by side.

`Cc1nc(-c2ccc(OCC(C)C)c(C#N)c2)sc1C(=O)O` — result for “adverse drug reaction incidence”: 25% (healthy Chinese subjects; oral, 40 mg, fed).
For `CC(=O)N(C)[C@H]1CCN(C(=O)c2cnc3c(c2)C[C@](C)(c2ccc(F)cc2)N3)C1`, “adverse event duration” read 2 days (item: Itching; human; oral, 15 mg once daily).
`CC(C)C[C@H](NC(=O)CNC(=O)c1cc(Cl)ccc1Cl)B(O)O`: “adverse events all grades” 11% (newly diagnosed multiple myeloma patients; oral, dose not given, Headache, maintenance).
`NCCONC(=O)[C@@H]1CC[C@@H]2CN1C(=O)N2OS(=O)(=O)O`: “adverse event incidence” 0% (item: Severe severity; healthy Chinese men; intravenous, 1 g, treatment-related).
`CCO[C@H]1CCN(Cc2c(OC)cc(C)c3[nH]ccc23)[C@H](c2ccc(C(=O)O)cc2)C1` — result for “adverse event incidence”: 0% (item: abdominal discomfort; PNH patients with active haemolysis; oral, 200 mg, extension phase).
Under “adverse drug reactions”, `C[C@H]1CNCCCN1S(=O)(=O)c1cccc2cncc(F)c12` is recorded as 100% (healthy adult men; topical ocular, 1 drop per eye twice daily, 8 days).
The adverse events of `CC#CC(=O)N[C@H]1CCCN(c2c(F)cc(C(N)=O)c3[nH]c(C)c(C)c23)C1` is reported as 83.3% (healthy volunteers; oral, 10 mg once daily, 14 days, MAD phase I).
`Cc1c(Cl)c(C)[n+]([O-])c(Cl)c1-c1noc(-c2cc(O)c(O)c([N+](=O)[O-])c2)n1`: “adverse drug reaction incidence” 6.7% (item: Presyncope; healthy Caucasian subjects; oral, 50 mg, 20 days).
`Cc1cc(C)c(CNC(=O)c2cc(Cl)c3c(c2C)O[C@@](C)([C@H]2CC[C@H](N(C)C)CC2)O3)c(=O)[nH]1`: “adverse event Fatigue” 29.2% (relapsed/refractory NHL patients; oral, 200 mg once daily, onset after cycle 1 day 1).
`C=CC[C@@H]1/C=C(\C)C[C@H](C)C[C@H](OC)[C@H]2O[C@@](O)(C(=O)C(=O)N3CCCC[C@H]3C(=O)O[C@H](/C(C)=C/[C@@H]3CC[C@@H](O)[C@H](OC)C3)[C@H](C)[C@@H](O)CC1=O)[C@H](C)C[C@@H]2OC`: “adverse drug reactions” 30% (item: tremors; kidney transplant recipients; oral, dose not given).
`C=CC(=O)N1CCC(c2ccc(C(N)=O)c(-c3ccc(Oc4ccccc4)cc3)n2)CC1`: “adverse event rate” 62.5% (relapsed/refractory mantle cell lymphoma patients; oral, 100 mg twice daily, part, CTCAE v4.03).

A few entries again:
For `CC(=O)N(C)[C@H]1CCN(C(=O)c2cnc3c(c2)C[C@](C)(c2ccc(F)cc2)N3)C1`, “adverse event duration” read 2 days (item: Itching; human; oral, 15 mg once daily).
`CC(C)C[C@H](NC(=O)CNC(=O)c1cc(Cl)ccc1Cl)B(O)O`: “adverse events all grades” 11% (newly diagnosed multiple myeloma patients; oral, dose not given, Headache, maintenance).
